{"data": "Measured values collected from several papers", "note": "Parts stem from different laboratories: compare values within a part only. Substitutions count along the parent as printed."}
{"data": "Sample 1", "target": "Interferon regulatory factor 5, full length, phosphomimetic (IRF5, Homo sapiens, UniProt Q13568-2, residues 1-514, S451D/S453D/S456D/S462D)", "method": "protein-binding microarray", "molecule type": "double-stranded DNA, one strand shown", "medium": "in vitro", "tested at": "940 nM top", "notes": "60-bp whole probe", "together with": "salmon DNA 0.4 mg/ml", "reference": "random background probes", "reading": "higher = stronger binding", "all sequences stand within": "GCCTAGCAC … GTCTTGATTCGCTTGACGCTGCTG"}
{"Strand": "TAAGGTTTCCTTTTCCTTTAGTGCTAG", "fitted relative affinity [z-score]": 1.22}
{"Strand": "ATCTTAATAAGGTTTCCAATCGTGCTA", "fitted relative affinity [z-score]": 0.209}
{"Strand": "GACGGTCTTCTTATCCTGACGTGCTAG", "fitted relative affinity [z-score]": 0.369}
{"Strand": "GACGATATCGGGTTTCTAGACGTGCTA", "fitted relative affinity [z-score]": 0.265}
{"Strand": "GACGGTTTACTACTGCTGACGTGCTAG", "fitted relative affinity [z-score]": -0.144}
{"Strand": "GACGATATCGGGTTCCGAGACGTGCTA", "fitted relative affinity [z-score]": -0.287}
{"Strand": "TTAGGTCTCGGTATCGATTAGTGCTAG", "fitted relative affinity [z-score]": 6.84}
{"Strand": "TTAAGTATCGGTATCGGTTAGTGCTAG", "fitted relative affinity [z-score]": 11.3}
{"data": "Sample 2", "target": "RNA binding protein fox-1 homolog 2, RRM domain, GST-SBP tag (RBFOX2, Homo sapiens, UniProt O43251-10, residues 100-194)", "method": "RNA Bind-n-Seq", "molecule type": "RNA", "medium": "in vitro", "tested at": "365 nM", "notes": "natural RNA segment, single round, ends assumed", "reference": "no-protein control", "reading": "higher = stronger binding", "all sequences stand within": "GGGAGUUCUACAGUCCGACGAUC … UGGAAUUCUCGGGUGCCAA", "Target sequence (chain)": "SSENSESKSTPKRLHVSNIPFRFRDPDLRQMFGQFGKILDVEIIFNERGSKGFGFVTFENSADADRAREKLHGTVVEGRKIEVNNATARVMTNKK"}
{"Strand": "UGUUGUAUUAUAACAGUAUUACAUGUCAACGGUGUGGUUAUGACCUUUAUUUAUAUAAAAACCAAAUAUUUAGUCAAUUUACCGUGUCUUAAUUUAAUCUUUGUACACCU", "RBNS enrichment (R)": 0.665}
{"Strand": "GUCUCUGAUGAGUUAUGCUAAGUUCUAGUCUGAUUAUCCUCCUGGUUCCAUUUAAGGCCCUCAGAGAUCAAUGCAAUUAGCCUAGCUUCCCCUUUGUUUAGGCAUCACUU", "RBNS enrichment (R)": 0.397}
{"Strand": "CCAAAGCCGAGCAUCAUAGAGAAUGAAUCCCUCUGGAAACACUUACUCUCAGAAAAUGACACUCUUCCCACAUGUGGGGUUUUCUCAGUGUUCUAAGUUUUUAAGAAGUU", "RBNS enrichment (R)": 0.445}
{"Strand": "CAUGUCCACUGAAGCCACUGGCAGUGGCUCCCAACCCCCAUCCCAUUAGAAGGGACUUGGCCUGCCCUUUGGAACUGUGCCCUUGUAGAAGAAGUAAAGGACUGAAUCAU", "RBNS enrichment (R)": 0.478}
{"Strand": "UUAUUCAUACAAAAAAAUGAGUUGAUGAUGGAAAAGCAAGUCAUAAUCAUCUAAUUGUUUUUGUCUAGGUCGAGAAUGAAUGUUAGCUGAUGAAAUAAACCCUGACAAGG", "RBNS enrichment (R)": 0.528}
{"Strand": "CUGGGCUGACCCCGGUGGCGGCCCCAGCACCUCAGCCUGCACAGUGUCCCCCAGGUUCCGAAGAAGAUGCUCCAGCAACACAGCCUGGGCCCCAGCUCGCGGGACCCGAC", "RBNS enrichment (R)": 0.444}
{"Strand": "AAUGGGCAGGAGAGAAGGCCUUUAUUUCUCGCCCACCCAUUCCUCCUGUACCAGCACCUCCGUUUUCAGUCAGUGUUGUCCAGCAACGGUACCGUUUACACAGUCACCUC", "RBNS enrichment (R)": 0.197}
{"Strand": "UAAGUGCUAAACAGAAUACUGCUAUUUUGAGAGAGUCAAGACUCUUUCUUAAGGGCCAAGAAAGCAACUUGAGCCUUGGGCUAAUCUGGCUGAGUAGUCAGUUAUAAAAG", "RBNS enrichment (R)": 0.236}
{"data": "Mixed results", "P1": "viral docking peptide; KKAKRRLFTISDS; partner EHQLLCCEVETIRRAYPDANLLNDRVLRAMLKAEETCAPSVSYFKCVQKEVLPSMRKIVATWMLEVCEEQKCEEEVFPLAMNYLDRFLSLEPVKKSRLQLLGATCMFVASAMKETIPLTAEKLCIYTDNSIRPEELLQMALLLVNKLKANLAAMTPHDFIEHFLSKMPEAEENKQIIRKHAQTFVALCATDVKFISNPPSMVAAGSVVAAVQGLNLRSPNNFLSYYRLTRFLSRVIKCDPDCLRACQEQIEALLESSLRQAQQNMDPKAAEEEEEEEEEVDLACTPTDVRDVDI"}
{"Substance": "P1 K1A", "target or system": "CCND1, cyclin fold, Cln2 fusion (human)", "test": "yeast growth competition, sequencing", "system": "yeast", "conditions": "weak parent motif", "how to read": "reference: not given, higher = stronger binding", "measurement": "normalised enrichment score", "value": 0.292}
{"Substance": "RAB1A (Homo sapiens, UniProt P62820)", "target or system": "RAB1C (Homo sapiens, UniProt Q92928)", "test": "cross-linking MS", "conditions": "hits only", "measurement": "interaction screen", "value": "cross-linked"}
{"note": "Some of these lines once more (sample 1):"}
{"Strand": "ATCTTAATAAGGTTTCCAATCGTGCTA", "fitted relative affinity [z-score]": 0.209}
{"Strand": "GACGGTCTTCTTATCCTGACGTGCTAG", "fitted relative affinity [z-score]": 0.369}
